{"data": "Published values of several laboratories", "target": "MAP kinase-interacting serine/threonine-protein kinase 2 (MKNK2, Homo sapiens, UniProt Q9HBH9)", "note": "Each line is one published result; not all experiments were run side by side.", "chain of UniProt Q9HBH9 (whole entry, unmodified, looked up)": "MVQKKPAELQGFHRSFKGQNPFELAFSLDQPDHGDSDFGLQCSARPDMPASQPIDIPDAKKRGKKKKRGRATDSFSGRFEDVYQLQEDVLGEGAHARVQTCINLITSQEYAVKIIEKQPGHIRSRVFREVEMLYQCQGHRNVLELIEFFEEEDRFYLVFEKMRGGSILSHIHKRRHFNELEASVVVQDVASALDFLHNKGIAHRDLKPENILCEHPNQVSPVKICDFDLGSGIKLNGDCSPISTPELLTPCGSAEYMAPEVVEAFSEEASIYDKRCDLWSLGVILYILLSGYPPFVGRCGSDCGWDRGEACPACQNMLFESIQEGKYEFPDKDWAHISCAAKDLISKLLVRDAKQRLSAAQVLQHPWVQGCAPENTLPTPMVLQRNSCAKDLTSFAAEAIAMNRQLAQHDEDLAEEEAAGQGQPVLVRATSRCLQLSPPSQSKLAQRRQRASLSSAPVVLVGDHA"}
{"SMILES": "Nc1ncc2c(n1)-c1c([nH]c3ccc(C4=CCOCC4)cc13)CCC2", "test": "binding, competition with immobilised ligand", "setting": "1 µM", "quantity": "remaining binding", "value": "86%"}
{"SMILES": "Cc1cccc(O[C@H]2CCC[C@@H](C(C)CNCc3ccncc3)C2)c1 (relative stereo)", "test": "enzyme activity, inhibitor", "setting": "10 µM", "quantity": "inhibition", "value": "-4%"}
{"SMILES": "NC(=O)C[C@H]1CCc2sc3ncnc(O[C@H]4CC[C@H](N5CCOCC5)CC4)c3c21", "test": "enzyme activity, inhibitor", "setting": "10 µM", "quantity": "inhibition", "value": "7%"}
{"SMILES": "CN1CCN(Cc2ccc(NC(=O)c3cccc(C#Cc4cnc(N)c5ncccc45)c3)cc2C(F)(F)F)CC1", "test": "cell-free assay, competition with immobilised ligand", "setting": "0.5 µM", "quantity": "remaining binding", "value": "0.5%"}
{"SMILES": "COc1cc(Nc2nc(C)cc(-c3cnn4nc(OC)ccc34)n2)cc(C(F)(F)F)c1", "test": "inhibitor", "setting": "1 µM", "scale": "baseline: control", "quantity": "remaining activity", "value": "78%"}
{"SMILES": "CNS(=O)(=O)Nc1nccc(Cc2c(C)c3ccc(Oc4ncccc4F)cc3oc2=O)c1F", "test": "binding, competition with immobilised ligand", "setting": "10 µM", "quantity": "remaining binding", "value": "91%"}
{"SMILES": "Cc1cccc(-c2ccc3nc(NC(=O)C4CCCCC4)nn3c2)c1", "test": "enzyme activity, Dundee kinase panel", "setting": "10 µM", "quantity": "remaining activity", "value": "67%"}
{"SMILES": "Cc1cccc(C2(C(=O)Nc3c[nH]nc3-c3ccccc3)CC2)c1", "test": "cell-free assay, competition with immobilised ligand", "setting": "10 µM", "quantity": "remaining binding", "value": "17%"}
{"SMILES": "O=C(O)CCC(=O)c1cccc(NS(=O)(=O)c2c[nH]c3ncccc23)c1", "test": "kinase activity, radiometric", "setting": "10 µM", "quantity": "remaining activity", "value": "111%"}
{"SMILES": "COc1ccc(NC(=O)Nc2ccc3c(c2)C(=O)N(C(C)CO)CC(C)C(CN(C)Cc2ccc4c(c2)OCO4)O3)cc1 (centres unmarked)", "test": "kinase activity, KinaseProfiler", "setting": "0.03 µM, species human", "scale": "baseline: control", "quantity": "remaining activity", "value": "92%"}
{"SMILES": "O=C=[N][Ru-4]123([n]4c5ccc(O)cc5c5c6c(c7cc(F)c[n+]1c7c54)C(=O)NC6=O)[S+]1CC[S+]2CC[S+]3CC1 (centres unmarked)", "test": "enzyme activity", "setting": "100 nM, human enzyme, with: 10 µM ATP", "scale": "baseline: untreated", "quantity": "remaining activity", "value": "95%"}
{"SMILES": "CNC(=O)C[C@H](Cc1ccc(C#N)cc1)NC(=O)c1cc(-c2ccc(CN[C@H](C)c3ccc(C)cc3)o2)ccc1Cl", "test": "enzyme activity, inhibitor", "setting": "1 µM", "quantity": "activity vs control", "value": "103%"}
{"SMILES": "C=C1CCCCCCCCCC(CO)C1=O (centres unmarked)", "test": "cell-free assay, competition with immobilised ligand", "setting": "10 µM", "quantity": "remaining binding", "value": "100%"}
{"SMILES": "C=CC(=O)N1CCCC(n2c(=O)c3ncccc3n(Cc3ccc(Oc4ccccc4)cc3)c2=O)C1 (centres unmarked)", "test": "cell-free assay, competition with immobilised ligand", "setting": "1 µM", "quantity": "remaining binding", "value": "61%"}
{"note": "Some of these lines once more:"}
{"SMILES": "COc1ccc(NC(=O)Nc2ccc3c(c2)C(=O)N(C(C)CO)CC(C)C(CN(C)Cc2ccc4c(c2)OCO4)O3)cc1 (centres unmarked)", "test": "kinase activity, KinaseProfiler", "setting": "0.03 µM, species human", "scale": "baseline: control", "quantity": "remaining activity", "value": "92%"}
{"SMILES": "O=C=[N][Ru-4]123([n]4c5ccc(O)cc5c5c6c(c7cc(F)c[n+]1c7c54)C(=O)NC6=O)[S+]1CC[S+]2CC[S+]3CC1 (centres unmarked)", "test": "enzyme activity", "setting": "100 nM, human enzyme, with: 10 µM ATP", "scale": "baseline: untreated", "quantity": "remaining activity", "value": "95%"}
